Measured values from different studies.
Lines come from different studies, so protocols differ.
TDP1: Tyrosyl-DNA phosphodiesterase 1 (TDP1, Homo sapiens, UniProt Q9NUW8)
Sequence of UniProt Q9NUW8 (whole entry, looked up): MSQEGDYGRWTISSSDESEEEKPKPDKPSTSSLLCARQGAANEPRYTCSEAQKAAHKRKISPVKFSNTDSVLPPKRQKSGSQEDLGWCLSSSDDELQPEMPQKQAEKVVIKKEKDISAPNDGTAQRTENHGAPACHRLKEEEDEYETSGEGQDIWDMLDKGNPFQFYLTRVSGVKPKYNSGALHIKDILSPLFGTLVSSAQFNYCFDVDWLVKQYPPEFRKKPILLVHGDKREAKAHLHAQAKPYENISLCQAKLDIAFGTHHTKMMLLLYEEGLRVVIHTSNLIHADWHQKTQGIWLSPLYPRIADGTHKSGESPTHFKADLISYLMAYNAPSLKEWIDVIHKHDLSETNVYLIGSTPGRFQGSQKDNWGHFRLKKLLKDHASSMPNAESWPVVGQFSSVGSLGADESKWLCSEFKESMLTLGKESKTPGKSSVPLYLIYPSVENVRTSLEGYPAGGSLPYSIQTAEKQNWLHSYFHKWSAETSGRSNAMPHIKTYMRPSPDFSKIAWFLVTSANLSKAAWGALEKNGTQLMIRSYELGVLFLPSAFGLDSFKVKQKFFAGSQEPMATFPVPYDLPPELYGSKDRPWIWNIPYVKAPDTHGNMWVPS

Structure (SMILES)	tested on	assay	test system	setting	endpoint	result
Cn1c(=O)n(C)c2cc([N+](=O)[O-])c(C=NOCc3ccc4nc(-c5ccccc5)c(Nc5ccc(C(=O)O)cc5)n4c3)cc21	TDP1	enzyme activity, inhibitor	–	100 µM, unpurified compound	inhibition	26.7%
CN[C@H](CC(C)C)C(=O)N[C@H]1C(=O)N[C@@H](CC(N)=O)C(=O)N[C@H]2C(=O)N[C@H]3C(=O)N[C@H](C(=O)N[C@H](C(=O)O)c4cc(O)cc(O)c4-c4cc3ccc4O)[C@H](O)c3ccc(c(Cl)c3)Oc3cc2cc(c3O[C@@H]2O[C@H](CO)[C@@H](O)[C@H](O)[C@H]2O[C@H]2C[C@](C)(NCc3ccc(-c4ccc(Cl)cc4)cc3)[C@H](O)[C@H](C)O2)Oc2ccc(cc2Cl)[C@H]1O	Enterococcus faecalis	–	BM4166, VanA vancomycin-resistant	together with: lipoteichoic acid 100 µg/mL	MIC	10 µg/mL
CN[C@H](CC(C)C)C(=O)N[C@H]1C(=O)N[C@@H](CC(N)=O)C(=O)N[C@H]2C(=O)N[C@H]3C(=O)N[C@H](C(=O)N[C@H](C(=O)O)c4cc(O)cc(O)c4-c4cc3ccc4O)[C@H](O)c3ccc(c(Cl)c3)Oc3cc2cc(c3O[C@@H]2O[C@H](CO)[C@@H](O)[C@H](O)[C@H]2O[C@H]2C[C@](C)(N)[C@H](O)[C@H](C)O2)Oc2ccc(cc2Cl)[C@H]1O	Enterococcus faecalis	microbial growth, broth dilution	29212	–	MIC	< 1 µM
CCCC/C=C/C(=O)N[C@@H](Cc1cc(F)cc(F)c1)C(=O)N[C@H]1COC(=O)[C@@H]2CCCN2C(=O)[C@H](C)NC(=O)[C@@H]2C[C@@H](C)CCN2C(=O)[C@@H]2CCCN2C1=O	Enterococcus faecalis	microbial growth, broth dilution	–	–	MIC	0.003 µg/mL
CCCCCCCC[N+](C)(C)CCCCCCOc1cc(OCCCCCC[N+](C)(C)CCCCCCCC)cc(OCCCCCC[N+](C)(C)CCCCCCCC)c1.[Br-].[Br-].[Br-]	Enterococcus faecalis	–	OG1RF	–	MIC	1 µM
CCCC/C=C/C(=O)N[C@@H](Cc1cc(F)cc(F)c1)C(=O)N[C@H]1COC(=O)[C@@H]2CCCN2C(=O)[C@H](C)NC(=O)[C@@H]2CCCCN2C(=O)[C@@H]2CCCN2C1=O	Enterococcus faecalis	microbial growth, broth dilution	–	–	MIC	0.015 µg/mL
CCNC(=S)NN=Cc1c2ccccc2cc2ccccc12.Cc1ccc(C(C)C)cc1.[Cl-].[Cl-].[Ru+2]	Enterococcus faecalis	–	–	24 h, 37.0 °C	MIC	20 µM
CCCCCCCCCCn1cc[n+](CCCCCCCCCCOc2cc(OCCCCCCCCCC[n+]3ccn(CCCCCCCCCC)c3)cc(OCCCCCCCCCC[n+]3ccn(CCCCCCCCCC)c3)c2)c1.[Br-].[Br-].[Br-]	Enterococcus faecalis	–	OG1RF	–	MIC	32 µM
CN(C)/C=C/c1c(C=NOCc2ccc3nc(-c4ccccc4)c(Nc4ccc(C(=O)O)cc4)n3c2)c2cc([N+](=O)[O-])ccc2n1C	TDP1	enzyme activity, inhibitor	–	100 µM, unpurified compound	inhibition	98.5%
CNC(C)C1CCC(N)C(OC2C(N)CC(N)C(OC3OCC(C)(O)C(NC)C3O)C2O)O1 (stereo not drawn)	Enterococcus faecalis	microbial growth, broth dilution	29212	–	MIC	1 µM
CCCC/C=C/C(=O)N[C@@H](Cc1cc(F)cc(F)c1)C(=O)N[C@H]1COC(=O)[C@@H]2CCCN2C(=O)[C@H](C)NC(=O)[C@@H]2C[C@@H](C(C)C)CCN2C(=O)[C@@H]2CCCN2C1=O	Enterococcus faecalis	microbial growth, broth dilution	–	–	MIC	0.098 µg/mL
CCCCCCCCCCn1cc[n+](CCCCCCCCOc2cc(OCCCCCCCC[n+]3ccn(CCCCCCCCCC)c3)cc(OCCCCCCCC[n+]3ccn(CCCCCCCCCC)c3)c2)c1.[Br-].[Br-].[Br-]	Enterococcus faecalis	–	OG1RF	–	MIC	8 µM
